# Assay results pooled from the literature.
# Compare with care: the assays were run in different laboratories. Values joined by “and” are separate records of one study, mostly repeats; a detail may differ.
# Target: Serine/threonine-protein kinase PAK 4 (PAK4, Homo sapiens, UniProt O96013)
Structure (SMILES),test,setting,scale,measurement,result
COc1c(Cl)cccc1Nc1c(-c2ccncc2C#C[C@@]2(C)CCCN2C(=O)/C=C/CN(C)C)[nH]c2c1C(=O)NCC2,"cell-free assay, competition with immobilised ligand",3 µM,,remaining binding,100%
NC(=O)[C@@H](O)C[C@H]1CCc2sc3ncnc(O[C@H]4CC[C@H](N5CCOCC5)CC4)c3c21,"enzyme activity, inhibitor",10 µM,,inhibition,4%
CN1CC[C@@H](COc2cnc(C#N)cc2-c2ccn3nc(NC(=O)C4CC4)cc3c2)C1,"inhibitor, KinaseProfiler panel",1 µM,,inhibition,8%
Cc1c[nH]c2nccc(-c3ccc(C(=O)N[C@@H]4c5c(F)cc(C(F)F)cc5C[C@@H]4O)cn3)c12,"binding, competition with immobilised ligand",3 µM,,remaining binding,17%
COc1ccc(NC(=O)Nc2ccc3c(c2)C(=O)N(C(C)CO)CC(C)C(CN(C)Cc2ccc4c(c2)OCO4)O3)cc1 (centres unmarked),"kinase activity, KinaseProfiler","0.03 µM, species human",reference: control,remaining activity,124%
C=CC(=O)N1CCCC(n2c(=O)c3ncccc3n(Cc3ccc(Oc4ccccc4)cc3)c2=O)C1 (centres unmarked),"cell-free assay, competition with immobilised ligand",1 µM,,remaining binding,100%
CN1CCN(Cc2ccc(NC(=O)c3cccc(C#Cc4cnc(N)c5ncccc45)c3)cc2C(F)(F)F)CC1,"cell-free assay, competition with immobilised ligand",50 nM,,remaining binding,76%
Cc1ccc(C)c(-c2ccc3nc(NC(=O)C4CCCCC4)nn3c2)c1,"enzyme activity, Dundee kinase panel",10 µM,,remaining activity,94%
COCC12C(=O)NC3C4(C(OC)CC1O)C1CC5(O)C(OC)C(O)C(OC(C)=O)(C1C5OC(=O)c1ccccc1)C3(O)C(OC)C24 (centres unmarked),"kinase activity, inhibitor, ProQinase kinase profiling",25 µM,reference: control,remaining activity,114% and 97%
Nc1nc(Nc2ccccc2)sc1C(=O)c1ccccc1,"enzyme activity, inhibitor",10 µM,,remaining activity,32%
COc1c(OCCCN2CCOCC2)ccc2c1N=C(NC(=O)c1cnc(N)nc1)N1CCN=C21,"kinase activity, inhibitor",1 µM,reference: untreated control,remaining activity,103%
CNC1C[S+]2CC[S+]3CC[S+](C1)[Ru-4]321([N]=C=S)[n]2c3ccc(OC)cc3c3c4c(c5cc(F)c[n+]1c5c32)C(=O)NC4=O (centres unmarked),KinomeScan,0.1 µM,reference: untreated,remaining binding,100%
CNS(=O)(=O)Nc1nccc(Cc2c(C)c3ccc(Oc4ncccc4F)cc3oc2=O)c1F,"cell-free assay, competition with immobilised ligand",10 µM,,remaining binding,92%
COc1cc(Nc2nc(C)cc(-c3cnn4nc(OC)ccc34)n2)cc(C(F)(F)F)c1,inhibitor,1 µM,reference: control,remaining activity,88%
Cc1cccc(O[C@H]2CCC[C@@H](C(C)CNCc3ccncc3)C2)c1 (relative stereo),"enzyme activity, inhibitor",10 µM,,inhibition,-15%
Nc1ncc2c(n1)-c1c([nH]c3ccc(C4=CCOCC4)cc13)CCC2,"binding, competition with immobilised ligand",1 µM,,remaining binding,100%
CC(=O)N1c2ccc(-c3ccc(CNC(=O)c4cn5cc(-c6cnc(N)nc6)nc(N6CCOCC6)c5n4)cc3)cc2CC[C@@H]1C,KINOMEscan,10 µM,,remaining binding,86%
C=C1CCCCCCCCCC(CO)C1=O (centres unmarked),"cell-free assay, competition with immobilised ligand",10 µM,,remaining binding,100%
Cc1cccc(-c2ccc3nc(NC(=O)C4CCCCC4)nn3c2)c1,"enzyme activity, Dundee kinase panel",10 µM,,remaining activity,96%
CCN1CCN(Cc2ccc(C(=O)Nc3ccc(C)c(NCc4cnc5[nH]ccc5c4OC)c3)cc2C(F)(F)F)CC1,"binding, competition with immobilised ligand",1 µM,,remaining binding,100%
Cc1cnc2nc1Nc1cccc(c1)COC/C=C/COCc1cc(ccc1OCCN1CCOCC1)N2,binding,0.1 µM,,remaining binding,90%
CNC(=O)C[C@H](Cc1ccc(C#N)cc1)NC(=O)c1cc(-c2ccc(CN[C@H](C)c3ccc(C)cc3)o2)ccc1Cl,"enzyme activity, inhibitor",1 µM,,activity vs control,98%
C=CC(=O)Nc1cccc(-c2cnc3[nH]cc(C(=O)NC(C)(C)C)c3n2)c1,"enzyme activity, inhibitor",0.1 µM,,inhibition,13%

# Repeated from above:
Structure (SMILES),test,setting,scale,measurement,result
Cc1cccc(-c2ccc3nc(NC(=O)C4CCCCC4)nn3c2)c1,"enzyme activity, Dundee kinase panel",10 µM,,remaining activity,96%
CNS(=O)(=O)Nc1nccc(Cc2c(C)c3ccc(Oc4ncccc4F)cc3oc2=O)c1F,"cell-free assay, competition with immobilised ligand",10 µM,,remaining binding,92%
